Experimental data pooled from the literature.
Parts stem from different laboratories: compare values within a part only. Changes are numbered by the printed parent chain.

Set 1
Target: RNA binding protein fox-1 homolog 2, RRM domain, GST-SBP tag (RBFOX2, Homo sapiens, UniProt O43251-10, residues 100-194)
Technique: RNA Bind-n-Seq
Molecule type: RNA
Matrix: in vitro
Tested at: 365 nM
Notes: natural RNA segment, single round, ends assumed
Reference: no-protein control
Direction: higher = stronger binding
Constant ends, left off below: GGGAGUUCUACAGUCCGACGAUC … UGGAAUUCUCGGGUGCCAA
Target sequence (chain): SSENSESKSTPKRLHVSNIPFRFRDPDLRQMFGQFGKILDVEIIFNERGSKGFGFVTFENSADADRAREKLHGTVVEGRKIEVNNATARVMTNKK
Oligonucleotide	RBNS enrichment (R)
AUGGGUCAGCCCUCACUGGGUGUCACACACUGAGAGAAGUCCUAUUGUAAAGAAACGGAAAAAGUCACAAAAAAGUUUGUAUAAAGACAUAUUUUUGUACUACAUGGGGA	0.642
GCACCGAAAAACUAAAAAUAAUGGGCGCUUUGGAGAAGAGUGUGGAGUCAUUCUCAUUGAAUUAUAAAAGCCAGCAGGCUUCAAACUAGGGGACAAAGCAAAAAGUGAUG	0.46
AGAAUGAGCCGAUAUUGGCUUAGUGCUCACUAGGGGACAUGCACAUGGAAGCUCACCUCUAAGAAAGGGCUGGGCAGAUGGAUUUAUUUUUUCCCACCUGUGAAUAUGUA	2.57
UGCCUGGGCAUGAACAUUGUUACCGUAAAUUGCACAUGGUCAUGGACUGAAUUAUGUGACUUUAAAGGAUGUAACUGCCCAACAUUUGCAGAUUCUGGGUGGUCUAUGUG	1.56
UUAUAUUUAUGCUUCUGUGUCAUGAUUUUUUCAAGCUGUUAUAUUAGUUGUAACCAGUAGUAUUCACAUUAAAUCUUGCUUUUUUUCCCCUUAAAAAAAGAAAAAAAUUA	1.25
UAAUAAAUGGUUUUGAUUGUUCAAACUAAUUUCUAGCUACCUGAAUAAUUCACAGAUUAUAGCUUAUUUUUAAUUAAUUUAUUUAUUUUGAAACAGUUUCACUGUGUCUG	0.426
UCAUGAUGUGUGCGUGUGGUUUGUUCCUUCUCCUUGCCGGGAAGUAUUUCAUUGCAUGGGCGUACUACUCUGCUUCUUUAUUUUUACACUGAGCCUUUCGCCCUGGAAGU	1.98
AGCCCAUCGAGAAGGGGCCUAGGGCGAAAUGAACACAAAGCCUCGAAAUCAGUGCGCUCCAGCUGAUCUCGUUCCGCCGGUUCCCCUUGGCCGCCAGUUCCGUUCUCCUC	0.349
AUCCUGUGGGCAGACACCUUACUCUGGAGCCAUUCCACCUGCCUGUCACCUGGGUCUGAGAAGCCUUCACUUCCACUUGCCAGAGGGAAGAACUGGCCACCCAUCUGUCA	0.638
AACUCUUUCAAACCCAAAAUAUUAUUGGUGGUACAUUUUAAAGUCCAAUUGUGGACUUAAAUUAGUCAAAUUGAGAGUUACUGAGUCCAUUCAGAUCUCCAGUAGGGUUU	0.483
UUAUAUGCUAAAUGCAUAUUUUAUGAUUUGCUGUAUUAACUGAUGAUAAAACUAAUGGCAGAAAAAGAAGUUGAGCAAUUUCUAUGUAAUGUACAGAUACUAGCAUUGCA	1.39
CUGCCCUGUCCCUCCUUGGAAACAGCAGCUUUGCCGAGGGCUCCCCAGCUUCCAUCUCAGGAGACCAGAACUCAUGGAAAAAUUAGGCACUUUUGGCUAAAAGUGCGAAU	0.27

Set 2
Target: Histone acetyltransferase KAT6A, winged helix 1, GST fusion (KAT6A, Homo sapiens, UniProt Q92794, residues 1-85)
Technique: protein binding microarray
Molecule type: double-stranded DNA, one strand shown
Matrix: in vitro
Tested at: not given
Notes: 8-mer, flanks averaged, mean of 2 arrays, mostly near background
Reference: not given
Direction: higher = stronger binding
Construct (chain): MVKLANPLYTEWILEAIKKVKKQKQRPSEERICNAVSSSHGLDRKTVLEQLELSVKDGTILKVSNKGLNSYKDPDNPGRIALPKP
Oligonucleotide	E-score
GTGTCTGA	-0.0373
CAGCTATA	-0.094
CAACCAAG	-0.209
AGTTCAAG	-0.0762
CAAGGGGA	-0.204
ACCCGCTG	0.228
AGAAAGCT	-0.0793
GAACGTTA	0.097
CCATGCCC	-0.0978
ACCGCAAG	0.0799
AGCTCATC	-0.0922
ATAGCTTA	-0.131
AAATTAGT	-0.0636
AGGTGTAA	-0.163
CATTCGAC	-0.129
GTCCGTCA	0.0119
ACAGGTCC	-0.0418
TGTCCAAA	-0.0758
CCATCAAA	-0.17

Set 3
Target: ABI1, truncated, D143A, DHFR fusion (Arabidopsis thaliana)
Technique: DHFR PCA, deep sequencing
Matrix: yeast
Notes: methotrexate growth selection, single substitutions
Added: (+)-ABA 2500 µM
Reference: wild-type fitted maximum
Direction: higher = stronger binding
Parent: PYL1, truncated, DHFR fusion (Arabidopsis thaliana); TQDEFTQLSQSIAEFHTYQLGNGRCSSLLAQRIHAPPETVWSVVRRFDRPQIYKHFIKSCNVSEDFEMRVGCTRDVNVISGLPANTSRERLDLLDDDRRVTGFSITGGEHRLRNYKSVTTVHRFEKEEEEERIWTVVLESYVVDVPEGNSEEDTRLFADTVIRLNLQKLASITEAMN; partner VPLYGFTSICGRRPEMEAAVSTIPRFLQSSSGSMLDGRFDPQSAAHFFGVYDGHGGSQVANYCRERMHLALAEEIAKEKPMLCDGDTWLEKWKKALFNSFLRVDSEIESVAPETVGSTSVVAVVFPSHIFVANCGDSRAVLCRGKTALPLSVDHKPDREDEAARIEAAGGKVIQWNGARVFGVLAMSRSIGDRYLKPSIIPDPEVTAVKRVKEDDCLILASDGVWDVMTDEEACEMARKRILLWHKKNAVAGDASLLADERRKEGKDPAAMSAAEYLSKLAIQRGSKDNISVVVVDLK
Variant	relative binding score [%]
F47Y	85.3
V142T	95.9
H55Q	95.9
A35W	50.1
T101H	89.7
K58N	91.7
E130V	101
E174R	89.6
R163P	-7.33
L94F	106
E147V	97.4
R90V	96.7
L156T	97.9
R99Q	93.9
D92A	85
F56Y	92
Q7N	102
L94P	-0.669
S117K	29

Set 4
Target: CCND2, cyclin fold, Cln2 fusion (human)
Technique: yeast growth competition, sequencing
Matrix: yeast
Notes: weak parent motif
Reference: not given
Direction: higher = stronger binding
Parent: SLBP docking peptide (human); ARYKRKLLINDFG; partner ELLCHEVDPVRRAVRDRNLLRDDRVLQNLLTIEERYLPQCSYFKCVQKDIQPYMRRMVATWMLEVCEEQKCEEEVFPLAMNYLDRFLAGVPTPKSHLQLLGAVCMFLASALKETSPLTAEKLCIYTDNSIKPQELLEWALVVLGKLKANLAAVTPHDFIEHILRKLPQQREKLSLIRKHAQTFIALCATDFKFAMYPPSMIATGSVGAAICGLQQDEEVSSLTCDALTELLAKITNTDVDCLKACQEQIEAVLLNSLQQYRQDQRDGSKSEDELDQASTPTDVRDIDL
Variant	normalised enrichment score
I9G	0.0487
K6M	0.15
K6S	0.0495
F12C	-0.151
N10M	0.0883
R5W	-0.381
R5V	0.476
F12P	0.196
L7Q	0.183
K6C	0.904
K6W	0.636
R5K	0.288
I9F	0.352
G13F	0.255
L7G	0.127
L7M	0.53
R2S	-0.0427
R2Y	0.934
A1H	0.165
N10A	0.157
L7I	-0.0932
L8H	-0.168
K4M	-0.027
R5H	-0.063
N10C	0.226

Set 5
Target: Fragile X messenger ribonucleoprotein 1, C-terminal low-complexity region (Fmr1, Mus musculus, UniProt P35922)
Technique: RNA Bind-n-Seq
Molecule type: RNA
Matrix: in vitro
Tested at: 200 nM
Notes: whole 134-nt RNA, ends assumed
Added: 150 mM LiCl
Reference: input library
Direction: higher = stronger binding
Each molecule: 7-deaza-guanosine replaces G
Constant ends, left off below: GGGAGUUCUACAGUCCGACGAUC … UGGAAUUCUCGGGUGUCAAGG
Oligonucleotide	log2 enrichment
UCAAGUCCUGUGCUACACAUCGUAUGUACCGAAUCGGGAAAGGAAAGGGAAAGGAAAGUAUUAUGUUACGCCGUUCGGAUCUGCACUUCC	-1.02
GUCCUGUGCUACACAUCGUAUGUACCGAAUCGGGAAAAAGGGUUUUUGGGAAAAAGGGAAAGUAUUAUGUUACGCCGUUCGGAUCUGCAC	-1.64
ACCAUGCAGGUGGGCAUCUUUGGGAAGUGGGGCAAGAGGGGGAUAGGGAGGGGGGUAACACUUUGGGAACAGGUGGUCCCAGGUCGUUUC	1.36
CCUGUGCUACACAUCGUAUGUACCGAAUCGGGGAAAAAGGGGAAAGGGGAAAAAAAGGGGAAAGUAUUAUGUUACGCCGUUCGGAUCUGC	1.07
UCCUCAAGUCCUGUGCUACACAUCGUAUGUACCGAAUCGGAGGGAGGGGAGGAAAGUAUUAUGUUACGCCGUUCGGAUCUGCACUUCCAG	-0.888
ACCAUGCAGGUGGGCAUCUUUGGGAAGUGGGGCAAGGGGGGGAUAGGGAGGGGGGUAACACUUUGGGAACCGGUGGUCCCAGGUCGUUUC	1.32
UAGGUGUUAUCUUCAGGAAGGCACACUGGACCUGCUAAAUUAACAAAUGGAAAGAAAGCGUAAGUACUUGAAGACGUUUACAACUUCAGA	-2.66
GUCCUGUGCUACACAUCGUAUGUACCGAAUCGGGAAAAAGGGGAAAAAGGGGAAAAAGGAAAGUAUUAUGUUACGCCGUUCGGAUCUGCA	0.701
UAACUUUAGAGGAGGAUCUGAUGGAUAUGGCAGUGGACGUGGACUUGGGGAUGGCUAUAAUGGGUAUGGAGGAGGACCUGGAGGUGGCAA	0.0801
UCCUGUGCUACACAUCGUAUGUACCGAAUCAAAUUUUUAAAUUUUUAAAUUUUUUUAAAAAAGUAUUAUGUUACGCCGUUCGGAUCUGCA	-2.55
UCCUGUGCUACACAUCGUAUGUACCGAAUCGGGUUUGGGAAAAAAAGGGUUUUUUUGGGAAAGUAUUAUGUUACGCCGUUCGGAUCUGCA	-1.38

Further values, each from its own experiment
Molecule	target	test	system	conditions	how to read	measurement	result
PhoQ, residues 284 288 289 292 302 303 ALVSVA	PhoP, residues 12 14 15 18 19 AQCLL (Escherichia coli, UniProt P23836)	Sort-seq, measured: YFP reporter	E. coli	PhoQ-PhoP variant library, added: 10 µM Mg2+	reference: high Mg2+ state, higher = stronger signaling	fold induction	3.88

Some of these lines once more (set 2):
Oligonucleotide	E-score
AAATTAGT	-0.0636
GAACGTTA	0.097
ACCCGCTG	0.228
GTGTCTGA	-0.0373
AGGTGTAA	-0.163
GTCCGTCA	0.0119
